Assay results from different studies.
A part holds a random share of what one study measured.
Chain of UniProt P46734 (whole entry, looked up): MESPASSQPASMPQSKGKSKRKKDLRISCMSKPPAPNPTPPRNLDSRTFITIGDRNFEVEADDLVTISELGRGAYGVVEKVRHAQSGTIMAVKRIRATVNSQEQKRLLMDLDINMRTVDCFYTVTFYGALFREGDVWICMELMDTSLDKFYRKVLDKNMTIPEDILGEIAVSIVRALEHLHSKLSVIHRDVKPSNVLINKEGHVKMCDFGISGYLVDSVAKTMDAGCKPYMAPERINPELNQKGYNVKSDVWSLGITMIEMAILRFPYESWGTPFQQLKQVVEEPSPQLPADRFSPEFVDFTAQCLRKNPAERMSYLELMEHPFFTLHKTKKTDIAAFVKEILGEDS
Chain of UniProt O00506 (whole entry, looked up): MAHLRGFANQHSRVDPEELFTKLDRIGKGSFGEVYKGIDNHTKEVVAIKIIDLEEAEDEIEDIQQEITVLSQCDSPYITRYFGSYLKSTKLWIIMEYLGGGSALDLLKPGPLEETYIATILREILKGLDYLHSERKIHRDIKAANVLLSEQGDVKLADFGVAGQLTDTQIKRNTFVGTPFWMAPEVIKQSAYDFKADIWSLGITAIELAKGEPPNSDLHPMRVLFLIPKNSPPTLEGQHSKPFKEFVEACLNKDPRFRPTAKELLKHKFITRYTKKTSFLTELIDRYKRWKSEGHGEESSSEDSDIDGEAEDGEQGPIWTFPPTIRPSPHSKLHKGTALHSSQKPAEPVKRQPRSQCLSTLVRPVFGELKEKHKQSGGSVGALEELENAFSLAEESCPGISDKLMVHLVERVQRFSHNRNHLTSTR
Chain of UniProt P08922 (whole entry, looked up): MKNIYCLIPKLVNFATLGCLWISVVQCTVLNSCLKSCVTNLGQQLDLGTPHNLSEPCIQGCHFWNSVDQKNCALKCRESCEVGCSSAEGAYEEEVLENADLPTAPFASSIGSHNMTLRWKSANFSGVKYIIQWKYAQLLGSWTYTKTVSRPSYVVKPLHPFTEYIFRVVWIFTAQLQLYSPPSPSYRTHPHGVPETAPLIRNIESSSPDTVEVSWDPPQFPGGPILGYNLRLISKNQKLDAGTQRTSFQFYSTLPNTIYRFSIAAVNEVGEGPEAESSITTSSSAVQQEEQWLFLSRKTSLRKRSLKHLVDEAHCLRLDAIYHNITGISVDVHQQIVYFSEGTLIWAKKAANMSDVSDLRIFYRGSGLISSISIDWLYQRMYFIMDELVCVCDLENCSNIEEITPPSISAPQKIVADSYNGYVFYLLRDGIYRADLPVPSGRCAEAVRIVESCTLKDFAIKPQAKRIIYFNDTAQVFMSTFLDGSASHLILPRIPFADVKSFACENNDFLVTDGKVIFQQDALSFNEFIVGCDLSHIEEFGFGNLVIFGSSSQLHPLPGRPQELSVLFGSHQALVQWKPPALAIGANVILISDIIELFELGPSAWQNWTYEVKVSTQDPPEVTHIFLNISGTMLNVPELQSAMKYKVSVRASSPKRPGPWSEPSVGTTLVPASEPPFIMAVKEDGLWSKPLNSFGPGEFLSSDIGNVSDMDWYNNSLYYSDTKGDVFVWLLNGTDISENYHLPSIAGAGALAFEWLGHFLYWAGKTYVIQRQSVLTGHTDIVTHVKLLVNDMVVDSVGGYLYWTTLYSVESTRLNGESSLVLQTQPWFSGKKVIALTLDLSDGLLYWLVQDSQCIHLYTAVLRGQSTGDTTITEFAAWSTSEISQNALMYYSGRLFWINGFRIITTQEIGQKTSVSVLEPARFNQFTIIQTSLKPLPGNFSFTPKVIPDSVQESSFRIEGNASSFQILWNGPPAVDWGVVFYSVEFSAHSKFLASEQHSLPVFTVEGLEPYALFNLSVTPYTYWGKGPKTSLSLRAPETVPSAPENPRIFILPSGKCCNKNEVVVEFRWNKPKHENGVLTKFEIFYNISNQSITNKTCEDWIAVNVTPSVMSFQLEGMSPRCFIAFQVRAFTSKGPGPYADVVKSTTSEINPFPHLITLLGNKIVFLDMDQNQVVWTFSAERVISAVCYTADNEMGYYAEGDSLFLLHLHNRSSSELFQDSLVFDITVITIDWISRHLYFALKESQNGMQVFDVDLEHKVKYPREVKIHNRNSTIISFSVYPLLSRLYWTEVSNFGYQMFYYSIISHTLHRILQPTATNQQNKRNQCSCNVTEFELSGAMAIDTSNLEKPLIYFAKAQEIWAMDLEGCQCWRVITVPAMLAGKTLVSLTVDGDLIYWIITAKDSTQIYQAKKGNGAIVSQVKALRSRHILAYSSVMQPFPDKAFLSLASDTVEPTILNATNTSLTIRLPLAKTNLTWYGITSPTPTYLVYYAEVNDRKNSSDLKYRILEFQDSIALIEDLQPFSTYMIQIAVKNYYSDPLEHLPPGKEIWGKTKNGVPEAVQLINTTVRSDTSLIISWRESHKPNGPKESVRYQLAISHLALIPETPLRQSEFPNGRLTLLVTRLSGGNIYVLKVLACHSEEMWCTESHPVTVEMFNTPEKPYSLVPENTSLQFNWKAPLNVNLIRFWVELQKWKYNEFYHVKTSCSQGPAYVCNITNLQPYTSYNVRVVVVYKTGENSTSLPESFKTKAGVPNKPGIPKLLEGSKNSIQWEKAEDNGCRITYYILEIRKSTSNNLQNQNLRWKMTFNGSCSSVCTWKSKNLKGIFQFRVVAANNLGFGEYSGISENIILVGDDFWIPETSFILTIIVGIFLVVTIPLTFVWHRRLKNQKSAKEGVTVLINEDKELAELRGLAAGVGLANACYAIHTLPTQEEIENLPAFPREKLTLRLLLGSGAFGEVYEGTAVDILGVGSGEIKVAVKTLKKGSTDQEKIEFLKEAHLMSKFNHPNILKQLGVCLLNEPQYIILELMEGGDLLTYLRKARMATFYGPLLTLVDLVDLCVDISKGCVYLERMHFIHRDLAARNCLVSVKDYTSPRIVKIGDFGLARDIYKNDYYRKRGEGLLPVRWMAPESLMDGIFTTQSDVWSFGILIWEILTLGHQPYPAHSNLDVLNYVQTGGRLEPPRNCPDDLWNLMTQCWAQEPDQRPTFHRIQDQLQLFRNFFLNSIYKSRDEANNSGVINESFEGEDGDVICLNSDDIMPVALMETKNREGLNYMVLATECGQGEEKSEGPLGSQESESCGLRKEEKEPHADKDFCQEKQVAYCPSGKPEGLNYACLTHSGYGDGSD

Series 1 — technique: DNA-protein interaction ELISA; molecule type: double-stranded DNA, one strand shown; medium: in vitro, bacterial lysate; tested at: not given; notes: whole dsDNA probe, crude lysate protein; relative to: highest signal in screen; direction: higher = stronger binding
Target: Probable WRKY transcription factor 50, DNA-binding domain (WRKY50, Arabidopsis thaliana, UniProt Q8VWQ5, residues 99-173)
Target sequence (chain): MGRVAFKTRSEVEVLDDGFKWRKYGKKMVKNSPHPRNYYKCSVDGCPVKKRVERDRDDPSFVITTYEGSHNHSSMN
Strand | relative absorbance
AAAAAAGTACGGATGCCCGCGCGTATAAAA | 35.4 % of maximum
AAAAAATTAATCCATGCTTATGTCTGAAAA | 31.8 % of maximum
AAAAAAGCTAGTCGATTCGGCTTAGAAAAA | 12.4 % of maximum
AAAAAAGATTGACTCGTCTTACTCGAAAAA | 79.7 % of maximum
AAAAAATCCCTGCTCCCCTGGTTCCTAAAA | 36.9 % of maximum
AAAAAAGGTTGGTACGTCGAGTTCTTAAAA | 10.6 % of maximum
AAAAAACCCCAGATTTCCAGCAGTTCAAAA | 41.3 % of maximum
AAAAAATACGTCTACGTGGTTGTCGTAAAA | 46.5 % of maximum

Series 2 — observed: enzyme activity; action: inhibitor; tested at: 0.5 µM; relative to: control
Target: Dual specificity protein kinase CLK1 (CLK1, Homo sapiens, UniProt P49759)
Construct (P49759 1-484): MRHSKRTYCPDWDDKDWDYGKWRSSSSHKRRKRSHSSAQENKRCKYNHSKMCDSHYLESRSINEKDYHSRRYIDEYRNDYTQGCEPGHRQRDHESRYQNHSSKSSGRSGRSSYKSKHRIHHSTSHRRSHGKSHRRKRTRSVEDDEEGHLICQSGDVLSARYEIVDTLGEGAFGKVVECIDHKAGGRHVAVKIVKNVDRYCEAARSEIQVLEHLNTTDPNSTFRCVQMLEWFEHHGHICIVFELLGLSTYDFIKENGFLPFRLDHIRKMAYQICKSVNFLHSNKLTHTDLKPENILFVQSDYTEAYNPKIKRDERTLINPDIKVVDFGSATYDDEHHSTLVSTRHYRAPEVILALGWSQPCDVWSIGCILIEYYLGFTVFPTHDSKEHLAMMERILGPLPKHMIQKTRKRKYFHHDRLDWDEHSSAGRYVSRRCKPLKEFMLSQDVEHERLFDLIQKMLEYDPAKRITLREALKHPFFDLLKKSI
Structure (SMILES) | remaining activity [%]
O=S(=O)(c1cccc2cnccc12)N1CCCNCC1 | 96.3
O=C(O)c1ccc2c3c1cccc3c(=O)n1c3ccccc3nc21 | 93.8
CC(C)[C@H](CO)Nc1nc(Nc2cc(N)cc(Cl)c2)c2ncn(C(C)C)c2n1 | 51.9
CNC(=O)c1cc(Oc2ccc(NC(=O)Nc3ccc(Cl)c(C(F)(F)F)c3)cc2)ccn1 | 97.7
Nc1ncnc2n[nH]c(Nc3ccc(F)cc3)c12 | 102
Cc1cccc(-c2[nH]c(C(C)(C)C)nc2-c2ccc3c(c2)OCO3)n1 | 98
O=C1NC(=O)C(c2cn(CCCO)c3ncccc23)=C1c1cnccn1 | 88.5
O=C(Nc1cccc(Nc2cc(Nc3cccc(C(F)(F)F)c3)ncn2)c1)C1CC1 | 107
COc1ccc(CNC(=O)Nc2ncc([N+](=O)[O-])s2)cc1 | 106
Cc1nc(-c2ccccc2)c(-c2ccncc2)o1 | 105
CO[C@H]1C[C@@H]2CC[C@@H](C)[C@@](O)(O2)C(=O)C(=O)N2CCCC[C@H]2C(=O)O[C@H]([C@H](C)C[C@@H]2CC[C@@H](O)[C@H](OC)C2)CC(=O)[C@H](C)/C=C(\C)[C@@H](O)[C@@H](OC)C(=O)[C@H](C)C[C@H](C)/C=C/C=C/C=C/1C | 107
O=C1NC(=O)C(c2cn(CCCn3ccnc3)c3ccccc23)=C1Nc1ccccc1 | 43.3
Oc1ccc(-c2nc(-c3ccncc3)c(-c3ccc(F)cc3)[nH]2)cc1 | 107
N#CC(C#N)=C(N)/C(C#N)=C/c1ccc(O)cc1 | 96.5
O=c1c2ccccc2[nH]c(=S)n1CCN1CCC(=C(c2ccc(F)cc2)c2ccc(F)cc2)CC1 | 113

Series 3 — observed: cell-free assay; technique: competition with immobilised ligand; tested at: 1 µM
Structure (SMILES): COc1ccc2c(c1)O[C@@H](c1ccc(OC)c(OC)c1)C[C@H]2NC(=O)C1(c2ccc3c(c2)OC(F)(F)O3)CC1
target | remaining binding [%]
ROS1 (Homo sapiens, UniProt P08922) | 97
STK25 (Homo sapiens, UniProt O00506) | 100
MET (Homo sapiens, UniProt P08581) | 100
MAP2K3 (Homo sapiens, UniProt P46734) | 78

Series 4 — technique: protein-binding microarray; molecule type: double-stranded DNA, one strand shown; medium: in vitro; tested at: 250 nM; notes: 60-bp whole probe; with: salmon DNA 0.4 mg/ml; relative to: random background probes; direction: higher = stronger binding; shared flanks, not repeated: GCCTAGCAC … GTCTTGATTCGCTTGACGCTGCTG
Target: Interferon regulatory factor 5, full length, phosphomimetic (IRF5, Homo sapiens, UniProt Q13568-2, residues 1-514, K96S/S451D/S453D/S456D/S462D)
Strand | log fluorescence
TTAGGTCTCATTATCCTTTAGTGCTAG | 0.288 z-score
TCATTTGTATTTTTGATACTGTGCTAG | 1.21 z-score
CCTAATCTCAGCCTCCGTCAGTGCTAG | -0.22 z-score
TTAGATATCCGGACTGGATTAGTGCTA | -0.161 z-score
TTAGATCTCAGTCCCGATTAGTGCTAG | -0.081 z-score
TTAGGTAGCGACACTGGGTTAGTGCTA | -0.0446 z-score
ACTCATTTTCGTTTTGTGTCGTGCTAG | 6.16 z-score
GAATGTCCTCCTCTCTCTTTGTGCTAG | -0.061 z-score

For quick reference, copied from above (series 2):
Structure (SMILES) | remaining activity [%]
Cc1nc(-c2ccccc2)c(-c2ccncc2)o1 | 105
CO[C@H]1C[C@@H]2CC[C@@H](C)[C@@](O)(O2)C(=O)C(=O)N2CCCC[C@H]2C(=O)O[C@H]([C@H](C)C[C@@H]2CC[C@@H](O)[C@H](OC)C2)CC(=O)[C@H](C)/C=C(\C)[C@@H](O)[C@@H](OC)C(=O)[C@H](C)C[C@H](C)/C=C/C=C/C=C/1C | 107
O=C1NC(=O)C(c2cn(CCCn3ccnc3)c3ccccc23)=C1Nc1ccccc1 | 43.3
Oc1ccc(-c2nc(-c3ccncc3)c(-c3ccc(F)cc3)[nH]2)cc1 | 107
N#CC(C#N)=C(N)/C(C#N)=C/c1ccc(O)cc1 | 96.5
